Measured values collected from several papers.
Numbered parts are unrelated; each lists some results of a single study. pIC50: −log10 of the molar value.
Chain of UniProt O43353 (whole entry, looked up): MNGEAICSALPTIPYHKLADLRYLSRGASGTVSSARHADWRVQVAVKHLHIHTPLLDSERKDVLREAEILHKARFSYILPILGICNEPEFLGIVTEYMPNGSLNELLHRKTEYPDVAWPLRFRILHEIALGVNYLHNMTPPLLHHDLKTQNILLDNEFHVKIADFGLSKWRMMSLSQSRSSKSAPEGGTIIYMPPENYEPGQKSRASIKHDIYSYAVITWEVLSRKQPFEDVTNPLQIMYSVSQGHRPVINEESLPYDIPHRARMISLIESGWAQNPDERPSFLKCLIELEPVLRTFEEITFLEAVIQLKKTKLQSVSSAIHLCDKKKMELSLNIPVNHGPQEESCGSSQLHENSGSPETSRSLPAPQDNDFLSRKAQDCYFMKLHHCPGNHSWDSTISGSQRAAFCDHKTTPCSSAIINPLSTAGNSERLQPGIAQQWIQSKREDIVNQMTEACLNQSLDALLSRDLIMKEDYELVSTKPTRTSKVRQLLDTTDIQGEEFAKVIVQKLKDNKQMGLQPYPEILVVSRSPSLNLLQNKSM
Chain of UniProt P07550 (whole entry, looked up): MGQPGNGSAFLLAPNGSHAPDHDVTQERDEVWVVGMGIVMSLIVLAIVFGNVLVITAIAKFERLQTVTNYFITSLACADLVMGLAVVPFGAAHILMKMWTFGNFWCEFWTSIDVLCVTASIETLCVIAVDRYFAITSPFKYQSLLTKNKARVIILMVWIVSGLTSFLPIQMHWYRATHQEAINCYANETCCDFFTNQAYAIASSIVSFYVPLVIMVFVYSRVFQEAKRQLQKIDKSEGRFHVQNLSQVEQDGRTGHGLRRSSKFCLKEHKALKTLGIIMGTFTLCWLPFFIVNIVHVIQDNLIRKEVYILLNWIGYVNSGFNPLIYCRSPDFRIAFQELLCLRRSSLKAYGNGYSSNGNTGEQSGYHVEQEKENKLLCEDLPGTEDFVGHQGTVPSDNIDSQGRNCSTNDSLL
Chain of UniProt Q04771 (whole entry, looked up): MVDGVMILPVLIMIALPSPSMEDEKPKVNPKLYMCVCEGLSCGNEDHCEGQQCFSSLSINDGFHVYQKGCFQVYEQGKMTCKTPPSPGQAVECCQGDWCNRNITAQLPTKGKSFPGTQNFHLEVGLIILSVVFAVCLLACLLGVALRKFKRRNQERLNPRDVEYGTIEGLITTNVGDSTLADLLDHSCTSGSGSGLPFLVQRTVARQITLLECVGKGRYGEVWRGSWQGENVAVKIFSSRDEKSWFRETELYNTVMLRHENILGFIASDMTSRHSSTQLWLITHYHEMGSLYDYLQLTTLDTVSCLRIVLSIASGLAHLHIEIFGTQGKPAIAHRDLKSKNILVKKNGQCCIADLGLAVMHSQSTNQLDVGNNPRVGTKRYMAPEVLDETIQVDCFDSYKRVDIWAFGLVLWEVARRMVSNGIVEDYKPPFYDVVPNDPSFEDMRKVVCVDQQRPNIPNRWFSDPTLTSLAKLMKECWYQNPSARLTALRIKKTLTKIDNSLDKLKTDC
Chain of UniProt P08631 (whole entry, looked up): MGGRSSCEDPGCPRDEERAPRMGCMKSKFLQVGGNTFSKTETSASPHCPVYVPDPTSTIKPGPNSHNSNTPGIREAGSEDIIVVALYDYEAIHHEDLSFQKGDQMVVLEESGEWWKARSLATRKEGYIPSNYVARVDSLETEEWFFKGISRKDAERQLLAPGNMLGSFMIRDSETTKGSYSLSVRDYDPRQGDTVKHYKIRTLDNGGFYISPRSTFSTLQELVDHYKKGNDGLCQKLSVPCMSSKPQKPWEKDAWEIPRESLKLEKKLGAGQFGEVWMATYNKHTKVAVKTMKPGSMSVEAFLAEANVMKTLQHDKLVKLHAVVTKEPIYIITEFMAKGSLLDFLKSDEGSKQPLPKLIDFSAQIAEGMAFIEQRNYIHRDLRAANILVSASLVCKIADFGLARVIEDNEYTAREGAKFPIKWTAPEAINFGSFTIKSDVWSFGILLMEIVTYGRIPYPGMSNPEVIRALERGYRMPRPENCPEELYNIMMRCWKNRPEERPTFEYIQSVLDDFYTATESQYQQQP
Chain of UniProt P35367 (whole entry, looked up): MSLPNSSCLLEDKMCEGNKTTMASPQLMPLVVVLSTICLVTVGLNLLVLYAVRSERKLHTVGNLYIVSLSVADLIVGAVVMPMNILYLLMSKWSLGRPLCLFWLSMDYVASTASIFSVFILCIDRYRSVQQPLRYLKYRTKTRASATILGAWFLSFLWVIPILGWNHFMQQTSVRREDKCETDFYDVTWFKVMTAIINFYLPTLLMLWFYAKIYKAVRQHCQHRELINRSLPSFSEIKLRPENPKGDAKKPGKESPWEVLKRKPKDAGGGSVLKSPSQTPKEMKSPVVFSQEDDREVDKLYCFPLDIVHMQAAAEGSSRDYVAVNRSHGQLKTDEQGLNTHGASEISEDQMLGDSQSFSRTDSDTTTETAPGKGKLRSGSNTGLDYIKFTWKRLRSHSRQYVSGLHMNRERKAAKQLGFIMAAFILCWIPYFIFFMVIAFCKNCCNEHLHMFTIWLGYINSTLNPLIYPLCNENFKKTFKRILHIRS
Chain of UniProt P08172 (whole entry, looked up): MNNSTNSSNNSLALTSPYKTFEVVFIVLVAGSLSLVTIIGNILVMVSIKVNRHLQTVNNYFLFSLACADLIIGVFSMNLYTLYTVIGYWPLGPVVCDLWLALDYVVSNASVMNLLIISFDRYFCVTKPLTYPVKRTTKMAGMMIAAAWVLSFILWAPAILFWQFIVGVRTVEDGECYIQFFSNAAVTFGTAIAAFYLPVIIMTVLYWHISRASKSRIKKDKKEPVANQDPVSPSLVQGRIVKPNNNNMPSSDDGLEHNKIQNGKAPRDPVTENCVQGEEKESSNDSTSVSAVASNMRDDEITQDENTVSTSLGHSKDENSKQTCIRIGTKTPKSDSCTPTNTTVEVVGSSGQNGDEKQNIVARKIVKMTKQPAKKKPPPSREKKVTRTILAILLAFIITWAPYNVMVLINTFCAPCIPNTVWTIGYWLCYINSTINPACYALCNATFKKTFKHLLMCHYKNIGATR
Chain of UniProt P18825 (whole entry, looked up): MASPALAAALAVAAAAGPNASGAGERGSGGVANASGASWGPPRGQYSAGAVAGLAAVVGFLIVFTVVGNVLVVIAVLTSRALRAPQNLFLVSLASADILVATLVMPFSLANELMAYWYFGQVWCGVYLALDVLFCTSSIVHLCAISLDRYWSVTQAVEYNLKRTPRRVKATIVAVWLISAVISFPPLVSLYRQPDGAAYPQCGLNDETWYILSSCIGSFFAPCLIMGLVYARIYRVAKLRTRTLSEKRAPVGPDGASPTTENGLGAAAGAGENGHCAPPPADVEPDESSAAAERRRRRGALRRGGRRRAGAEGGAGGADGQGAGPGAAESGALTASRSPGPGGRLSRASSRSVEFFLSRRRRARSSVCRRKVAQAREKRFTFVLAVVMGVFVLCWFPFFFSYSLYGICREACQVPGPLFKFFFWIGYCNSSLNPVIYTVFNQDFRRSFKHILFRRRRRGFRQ
Chain of UniProt P35348 (whole entry, looked up): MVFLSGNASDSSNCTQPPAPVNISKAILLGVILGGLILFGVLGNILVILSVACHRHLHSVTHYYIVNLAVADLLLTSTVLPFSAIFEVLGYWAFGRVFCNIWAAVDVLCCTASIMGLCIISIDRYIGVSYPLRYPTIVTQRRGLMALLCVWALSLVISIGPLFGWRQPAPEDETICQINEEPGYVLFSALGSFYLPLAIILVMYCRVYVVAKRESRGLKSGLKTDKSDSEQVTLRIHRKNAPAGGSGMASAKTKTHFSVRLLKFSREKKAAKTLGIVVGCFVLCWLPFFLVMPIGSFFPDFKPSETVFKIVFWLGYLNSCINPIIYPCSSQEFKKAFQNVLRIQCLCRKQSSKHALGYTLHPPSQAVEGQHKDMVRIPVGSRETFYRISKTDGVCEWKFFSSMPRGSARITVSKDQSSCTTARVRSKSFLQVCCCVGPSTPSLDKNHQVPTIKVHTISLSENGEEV
Chain of UniProt P15735 (whole entry, looked up): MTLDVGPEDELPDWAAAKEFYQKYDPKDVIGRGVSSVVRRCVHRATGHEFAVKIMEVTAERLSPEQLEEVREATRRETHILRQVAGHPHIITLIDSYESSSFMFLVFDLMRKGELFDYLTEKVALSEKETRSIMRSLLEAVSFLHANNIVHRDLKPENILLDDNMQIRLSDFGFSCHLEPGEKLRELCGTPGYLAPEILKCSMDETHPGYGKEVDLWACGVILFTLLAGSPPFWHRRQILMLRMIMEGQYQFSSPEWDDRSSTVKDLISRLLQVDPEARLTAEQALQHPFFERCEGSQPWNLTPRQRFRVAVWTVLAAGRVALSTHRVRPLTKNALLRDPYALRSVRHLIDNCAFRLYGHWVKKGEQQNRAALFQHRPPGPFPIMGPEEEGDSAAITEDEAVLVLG
Chain of UniProt Q5BJF2 (whole entry, looked up): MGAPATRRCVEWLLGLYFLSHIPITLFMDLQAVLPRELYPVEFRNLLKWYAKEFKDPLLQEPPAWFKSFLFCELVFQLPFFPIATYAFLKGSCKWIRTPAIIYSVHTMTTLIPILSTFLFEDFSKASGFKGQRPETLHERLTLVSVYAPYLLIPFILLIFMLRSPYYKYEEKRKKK

Series 1 — read-out: enzyme activity; mode: inhibitor; tested at: 0.5 µM; baseline: control; endpoint: remaining activity
Structure (SMILES): Cc1cc(Nc2cc(N3CCN(C)CC3)nc(Sc3ccc(NC(=O)C4CC4)cc3)n2)[nH]n1
HCK (Homo sapiens, UniProt P08631): 82.7%
ULK1 (Homo sapiens, UniProt O75385): 99.2%
ACVR1 (Homo sapiens, UniProt Q04771): 162%
MAP3K9 (Homo sapiens, UniProt P80192): 38.7%
TAOK1 (Homo sapiens, UniProt Q7L7X3): 44.6%
PLK1 (Homo sapiens, UniProt P53350): 95.2%
VRK1 (Homo sapiens, UniProt Q99986): 107%
RIPK2 (Homo sapiens, UniProt O43353): 104%
NTRK2 (Homo sapiens, UniProt Q16620): 26.9%
TNK2 (Homo sapiens, UniProt Q07912): 66.4%
PDGFRB (Homo sapiens, UniProt P09619): 71.5%
RAF1 (Homo sapiens, UniProt P04049): 117%
DYRK2 (Homo sapiens, UniProt Q92630): 101%
PRKD3 (Homo sapiens, UniProt O94806): 86.6%
SGK3 (Homo sapiens, UniProt Q96BR1): 101%
PHKG2 (Homo sapiens, UniProt P15735): 90.6%
MAP4K5 (Homo sapiens, UniProt Q9Y4K4): 18.3%

Series 2 — read-out: cell-free assay; tested at: 10 µM; endpoint: inhibition
Structure (SMILES): CCOc1cc(N2C3COCC2CN(C(=O)[C@H]2C[C@H](O)CN2c2ccc(Cl)cc2)C3)ccc1Cl
DRD4 (Homo sapiens, UniProt P21917): 15.5%
HRH1 (Homo sapiens, UniProt P35367): 11.2%
ADRA2C (Homo sapiens, UniProt P18825): 2.17%
TMEM97 (Homo sapiens, UniProt Q5BJF2): 83.6%
ADRB2 (Homo sapiens, UniProt P07550): -4.63%
CHRM2 (Homo sapiens, UniProt P08172): 8.64%
HRH2 (Homo sapiens, UniProt P25021): 27.7%
CHRM4 (Homo sapiens, UniProt P08173): -3.29%
HTR6 (Homo sapiens, UniProt P50406): -8.16%
ADRA1A (Homo sapiens, UniProt P35348): 17%
ADRA2A (Homo sapiens, UniProt P08913): -11%

Series 3 — mode: antagonist; endpoint: pIC50
Target: Beta-1 adrenergic receptor (ADRB1, Homo sapiens, UniProt P08588)
Chain of UniProt P08588 (whole entry, looked up): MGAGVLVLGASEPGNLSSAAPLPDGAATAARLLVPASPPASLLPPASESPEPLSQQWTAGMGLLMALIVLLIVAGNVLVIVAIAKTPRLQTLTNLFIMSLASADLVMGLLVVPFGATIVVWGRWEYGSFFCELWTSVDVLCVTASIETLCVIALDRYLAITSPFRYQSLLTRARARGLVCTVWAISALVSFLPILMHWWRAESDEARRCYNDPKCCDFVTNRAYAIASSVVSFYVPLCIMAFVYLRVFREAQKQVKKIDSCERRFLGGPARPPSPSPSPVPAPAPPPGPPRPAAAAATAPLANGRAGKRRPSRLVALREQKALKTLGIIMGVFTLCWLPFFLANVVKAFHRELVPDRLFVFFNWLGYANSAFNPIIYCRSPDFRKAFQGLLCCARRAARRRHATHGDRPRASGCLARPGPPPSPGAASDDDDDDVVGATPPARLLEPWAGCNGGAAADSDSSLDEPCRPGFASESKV
Cc1ccc(-c2cc(C(=O)Nc3nnc(C)s3)c3ccccc3n2)s1: ≤ 4.00
OC(CNc1ncccn1)c1ccccc1 (centres unmarked): ≤ 4.00
COc1ccccc1N1CCN(c2ncncc2-c2nc(-c3ccccc3)no2)CC1: ≤ 4.00
c1cc2nnc(C3CCC3)n2nc1N1CCCNCC1: ≤ 4.00
CCN(c1cc(-c2ccc(N3CCN(C)CC3)nc2)cc(C(=O)NCc2c3c(c(C)[nH]c2=O)CCCC3)c1C)C1CCOCC1: ≤ 4.00
Cc1cc(-c2nccc3c(=O)cc(N(C)C)oc23)ccn1: ≤ 4.00
CC(C)CN(C)C(=O)c1cc(-c2cnn(C(C)C)c2)nc2ccc(F)cc12: ≤ 4.00
Cc1noc2c(-c3cccnc3NCC3CCOCC3)cc(-c3ccccc3)nc12: ≤ 4.00
CN(c1ccccc1)c1cc(=O)c2ccnc(NCCc3ccccn3)c2o1: ≤ 4.00
O=C(Nc1ccc([C@@H](O)[C@H]2COCC(=O)N2Cc2ccc(F)cc2)cc1)c1ccc2c(c1)OCO2: ≤ 4.00
Cc1noc2c(-c3cccc(O)c3)cc(-c3cccs3)nc12: ≤ 4.00
Cc1cc2c(F)c(Oc3ncnn4cc(OCC(C)O)c(C)c34)ccc2[nH]1 (centres unmarked): ≤ 4.00
CCN(CC)c1ccc2c(c1)OC(=O)/C(=C/Nc1ccc(CC(=O)NNc3c4c(nc5ccccc35)CCCC4)cc1)C2=O: ≤ 4.00
O=c1oc2ccc(Br)cc2cc1-c1nc2c(s1)CCc1ccccc1-2: ≤ 4.00
COc1ccccc1OCC(O)CNC(C)C (centres unmarked): ≤ 4.00
COc1cc(CNCCOc2ccccc2)ccc1OCC(O)CN1CCOCC1 (centres unmarked): ≤ 4.00

Series 4 — medium: EL4 tumour; dose: dose not given; baseline: vehicle; endpoint: log2 fold change
SMILES: CC(=O)N[C@@H](Cc1c[nH]c2ccccc12)C(=O)N[C@@H](CCC(=O)C=[N+]=[N-])C(=O)OC(C)C
measured: O-methyltyrosine; mouse, EL4 tumour-bearing: 0.347
measured: bicine; mouse, EL4 tumour-bearing: 0.61
measured: acetylphosphate; mouse, EL4 tumour-bearing: 0.649
measured: bilirubin; mouse, EL4 tumour-bearing: 0.314
measured: hydroxymethylpyrimidine; mouse, EL4 tumour-bearing: 0.0271
measured: guanidinoacetate; mouse, EL4 tumour-bearing: 0.371
measured: N,N,N-trimethyl-5-aminovalerate; Mus musculus: -0.372
measured: isocitrate; mouse, EL4 tumour-bearing: -0.243
measured: N-acetylmethionine; mouse, EL4 tumour-bearing: 0.596
measured: 5-aminovalerate; mouse, EL4 tumour-bearing: 0.336
measured: thymidine; mouse, EL4 tumour-bearing: -0.397
measured: daidzein; mouse, EL4 tumour-bearing: -1.1
measured: 4-vinylphenol sulfate; mouse, EL4 tumour-bearing: -0.451
measured: nicotinamide; mouse, EL4 tumour-bearing: -0.316
measured: benzoate; mouse, EL4 tumour-bearing: 0.251

A few entries again (series 3):
CCN(c1cc(-c2ccc(N3CCN(C)CC3)nc2)cc(C(=O)NCc2c3c(c(C)[nH]c2=O)CCCC3)c1C)C1CCOCC1: ≤ 4.00
O=C(Nc1ccc([C@@H](O)[C@H]2COCC(=O)N2Cc2ccc(F)cc2)cc1)c1ccc2c(c1)OCO2: ≤ 4.00
Cc1noc2c(-c3cccnc3NCC3CCOCC3)cc(-c3ccccc3)nc12: ≤ 4.00
CCN(CC)c1ccc2c(c1)OC(=O)/C(=C/Nc1ccc(CC(=O)NNc3c4c(nc5ccccc35)CCCC4)cc1)C2=O: ≤ 4.00
Cc1cc(-c2nccc3c(=O)cc(N(C)C)oc23)ccn1: ≤ 4.00
